Earlier results that unrelated publications cite.
Each line is one published result; not all experiments were run side by side.

SMILES = CCC1=C(O)c2c(oc(-c3cc4ccccc4s3)cc2=O)C(CC)(CC)C1=O; cell line = KB-VIN (P-gp-overexpressing MDR); test = cell growth, SRB; IC50 = 9.9 µM
SMILES = FC(F)(F)c1ccc2nc3c4cccnc4c4ncccc4c3nc2c1.[Cl-].[Cl-].[Ru+2].c1ccncc1.c1ccncc1.c1ccncc1.c1ccncc1; cell line = L-O2; test = cytotoxicity; setting = dark; IC50 = > 200 µM
SMILES = CCC1=C(O)c2c(oc(-c3ccc4ccccc4c3)cc2=O)C(CC)(CC)C1=O; cell line = KB-VIN (P-gp-overexpressing MDR); test = cell growth, SRB; IC50 = 1.16 µM
SMILES = CC1=NN(c2nc(-c3ccc(Cl)cc3)cs2)C(c2ccc(F)cc2)C1 (stereo not shown); cell line = MCF7; test = cytotoxicity; IC50 = 0.07 µM
SMILES = COc1cc(/C=C/C(=O)NCCc2ccc(O)c(O)c2)ccc1O; cell line = RAW264.7; test = cytotoxicity; setting = 24 h; IC50 = > 100 µM
SMILES = CCCC[C@H](C)/C=C(C)/C=C/C(=O)O; cell line = T47D; test = cytotoxicity; IC50 = 1 µM
SMILES = COc1cc(O)c(-c2ccc(OC)c3c(O)cc(C)c(-c4cc(-c5c(O)cc(OC)c6c5C[C@H](C)N(C)[C@@H]6C)c5cc(C)cc(OC)c5c4O)c23)c2c1[C@@H](C)N(C)[C@H](C)C2; cell line = rat L6 myoblasts; test = cytotoxicity; IC50 = 1.37 µM
SMILES = O=C(CCc1ccc(O)c(O)c1)NCCc1ccc(O)cc1; cell line = RAW264.7; test = cytotoxicity; setting = 24 h; IC50 = > 100 µM
SMILES = CC1=C(Cn2c3cccc(=O)c-3nc3ccccc32)CCC(C)(C)C1; cell line = L1210 mouse leukaemia; test = cytotoxicity; IC50 = 0.1 µg/mL
SMILES = CC(C)C[C@@H](NC(=O)[C@H](C)NC(=O)CNC(=O)[C@@H](NC=O)C(C)C)C(=O)N[C@@H](C)C(=O)N[C@@H](C(=O)N[C@H](C(=O)N[C@@H](C(=O)N[C@@H](Cc1c[nH]c2ccccc12)C(=O)N[C@H](CC(C)C)C(=O)N[C@@H](Cc1c[nH]c2ccccc12)C(=O)N[C@H](CC(C)C)C(=O)N[C@@H](Cc1c[nH]c2ccccc12)C(=O)N[C@H](CC(C)C)C(=O)N[C@@H](Cc1c[nH]c2ccccc12)C(=O)NCCO)[C@H](C)O)C(C)C)C(C)C; cell line = P388; test = cytotoxicity; IC50 = > 1 µM
SMILES = CCC1=C(O)c2c(oc(-c3ccc(OC)c4ccccc34)cc2=O)C(CC)(CC)C1=O; cell line = KB-VIN (P-gp-overexpressing MDR); test = cell growth, SRB; IC50 = 1.56 µM
SMILES = COc1cc(/C=C/C(=O)NCCc2ccc(OC)c(OC)c2)ccc1O; cell line = RAW264.7; test = cytotoxicity; setting = 24 h; IC50 = > 100 µM
SMILES = CC(C)=CCn1c2ccc(Br)c(=O)c-2nc2ccccc21; cell line = HCT-116; test = cytotoxicity; IC50 = 0.029 µM

Excerpt of the above:
SMILES = COc1cc(/C=C/C(=O)NCCc2ccc(OC)c(OC)c2)ccc1O; cell line = RAW264.7; test = cytotoxicity; setting = 24 h; IC50 = > 100 µM
